Assay results pooled from the literature.
Lines come from different studies, so protocols differ. Several values in a cell are separate wells, animals, samples, runs or records. ± gives the spread as reported.
Chain of UniProt P14616 (whole entry, looked up): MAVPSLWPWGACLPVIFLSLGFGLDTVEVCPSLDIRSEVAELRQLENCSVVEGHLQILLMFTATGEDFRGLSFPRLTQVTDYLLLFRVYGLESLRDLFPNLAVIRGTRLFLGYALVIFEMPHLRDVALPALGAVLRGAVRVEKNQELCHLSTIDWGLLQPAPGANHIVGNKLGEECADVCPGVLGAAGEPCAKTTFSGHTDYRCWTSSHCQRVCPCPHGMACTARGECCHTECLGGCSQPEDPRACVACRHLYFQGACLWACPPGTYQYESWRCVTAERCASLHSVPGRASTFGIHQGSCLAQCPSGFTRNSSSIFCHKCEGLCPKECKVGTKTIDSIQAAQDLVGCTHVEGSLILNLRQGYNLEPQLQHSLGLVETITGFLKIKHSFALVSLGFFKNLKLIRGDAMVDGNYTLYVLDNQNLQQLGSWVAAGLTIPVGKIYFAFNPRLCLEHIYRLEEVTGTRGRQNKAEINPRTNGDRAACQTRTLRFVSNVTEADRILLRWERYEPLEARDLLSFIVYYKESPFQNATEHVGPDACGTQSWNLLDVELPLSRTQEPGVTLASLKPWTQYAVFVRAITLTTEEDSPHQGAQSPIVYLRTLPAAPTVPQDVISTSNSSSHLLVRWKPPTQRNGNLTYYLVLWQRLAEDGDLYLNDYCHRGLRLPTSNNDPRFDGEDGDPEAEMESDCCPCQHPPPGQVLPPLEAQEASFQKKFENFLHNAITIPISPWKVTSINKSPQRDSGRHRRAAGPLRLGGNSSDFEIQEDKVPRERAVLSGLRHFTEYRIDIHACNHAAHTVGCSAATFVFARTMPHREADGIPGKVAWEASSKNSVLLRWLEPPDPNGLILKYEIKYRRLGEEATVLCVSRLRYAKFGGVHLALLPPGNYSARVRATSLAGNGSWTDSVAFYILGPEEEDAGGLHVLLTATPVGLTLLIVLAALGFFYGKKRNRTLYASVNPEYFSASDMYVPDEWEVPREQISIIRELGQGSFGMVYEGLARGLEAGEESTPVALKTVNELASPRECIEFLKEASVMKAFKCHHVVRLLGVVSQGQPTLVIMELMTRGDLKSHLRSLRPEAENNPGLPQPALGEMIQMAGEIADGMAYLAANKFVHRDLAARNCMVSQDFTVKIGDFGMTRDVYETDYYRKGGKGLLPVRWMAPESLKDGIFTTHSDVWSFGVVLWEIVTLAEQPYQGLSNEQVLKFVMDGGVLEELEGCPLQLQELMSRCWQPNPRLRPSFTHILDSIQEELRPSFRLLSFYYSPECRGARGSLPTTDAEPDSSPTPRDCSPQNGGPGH
Chain of UniProt P54764 (whole entry, looked up): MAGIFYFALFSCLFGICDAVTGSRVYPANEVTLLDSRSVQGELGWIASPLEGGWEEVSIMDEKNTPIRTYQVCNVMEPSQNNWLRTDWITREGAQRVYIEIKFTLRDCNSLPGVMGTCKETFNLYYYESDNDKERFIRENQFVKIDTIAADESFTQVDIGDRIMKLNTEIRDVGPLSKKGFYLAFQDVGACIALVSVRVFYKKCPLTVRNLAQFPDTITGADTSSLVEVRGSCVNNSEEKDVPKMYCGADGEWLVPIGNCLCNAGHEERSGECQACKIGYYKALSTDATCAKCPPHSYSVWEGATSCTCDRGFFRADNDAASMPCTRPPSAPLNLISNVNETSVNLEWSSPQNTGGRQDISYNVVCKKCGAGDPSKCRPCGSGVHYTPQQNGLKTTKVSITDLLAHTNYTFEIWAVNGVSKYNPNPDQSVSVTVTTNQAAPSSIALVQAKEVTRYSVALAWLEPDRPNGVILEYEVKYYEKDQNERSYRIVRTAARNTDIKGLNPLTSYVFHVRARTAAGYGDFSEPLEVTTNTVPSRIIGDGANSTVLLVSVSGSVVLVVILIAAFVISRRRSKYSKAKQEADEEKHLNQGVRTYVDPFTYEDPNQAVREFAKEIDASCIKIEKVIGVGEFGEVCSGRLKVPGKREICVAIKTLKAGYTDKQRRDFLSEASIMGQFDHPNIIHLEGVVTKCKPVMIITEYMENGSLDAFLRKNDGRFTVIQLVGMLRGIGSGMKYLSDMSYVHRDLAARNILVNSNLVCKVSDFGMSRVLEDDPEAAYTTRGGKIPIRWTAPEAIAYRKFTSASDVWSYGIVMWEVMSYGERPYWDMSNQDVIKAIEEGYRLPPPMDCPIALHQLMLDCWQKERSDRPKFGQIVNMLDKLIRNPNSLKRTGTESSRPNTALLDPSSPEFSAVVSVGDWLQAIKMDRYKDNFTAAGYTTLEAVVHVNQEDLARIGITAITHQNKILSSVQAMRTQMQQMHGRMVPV
Chain of UniProt P22455 (whole entry, unmodified, looked up): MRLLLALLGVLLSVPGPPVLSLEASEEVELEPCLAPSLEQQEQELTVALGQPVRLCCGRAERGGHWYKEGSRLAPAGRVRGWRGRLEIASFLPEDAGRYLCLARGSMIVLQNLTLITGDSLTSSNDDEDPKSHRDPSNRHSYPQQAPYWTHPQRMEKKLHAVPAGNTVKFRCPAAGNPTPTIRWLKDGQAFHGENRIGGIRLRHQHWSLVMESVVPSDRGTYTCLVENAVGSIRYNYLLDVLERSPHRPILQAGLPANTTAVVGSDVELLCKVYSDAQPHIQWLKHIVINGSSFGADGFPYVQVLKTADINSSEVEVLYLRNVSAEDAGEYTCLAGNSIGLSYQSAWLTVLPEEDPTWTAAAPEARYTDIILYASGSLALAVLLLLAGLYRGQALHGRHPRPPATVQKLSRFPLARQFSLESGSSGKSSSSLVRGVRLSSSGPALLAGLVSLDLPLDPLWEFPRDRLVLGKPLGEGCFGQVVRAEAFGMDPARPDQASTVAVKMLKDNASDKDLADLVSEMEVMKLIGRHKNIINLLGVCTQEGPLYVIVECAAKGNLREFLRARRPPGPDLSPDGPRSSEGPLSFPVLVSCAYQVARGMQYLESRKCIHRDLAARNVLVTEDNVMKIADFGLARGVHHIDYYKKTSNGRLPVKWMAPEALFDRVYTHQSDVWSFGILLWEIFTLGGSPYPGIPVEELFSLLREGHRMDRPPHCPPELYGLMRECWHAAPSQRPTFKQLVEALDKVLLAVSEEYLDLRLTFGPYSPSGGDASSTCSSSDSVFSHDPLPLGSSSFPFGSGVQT

| SMILES | tested on | test | test system | setting | scale | endpoint | result |
| --- | --- | --- | --- | --- | --- | --- | --- |
| CC(C)CC(C(=O)N1CC2(CC1C#N)C(=O)Nc1ccccc12)N(C)C(=O)c1cc2c(F)cc(F)c(F)c2[nH]1 (stereo not drawn) | Human coronavirus 229E | cytopathic effect | MRC5 | 210 pM |  | inhibition | 1% |
| Nc1ncc(-c2cc(-c3cnn(CC(F)(F)F)c3)ncc2F)nc1C(=O)NC1CNCC(F)C1 (stereo not drawn) | FLT3 ITD F691L | KINOMEscan |  | 1 µM |  | remaining binding | 45% |
| COc1ccccc1-c1n[nH]c2nc(N[C@H]3CC[C@H](NS(=O)(=O)CC(C)C)CC3)ncc12 |  | bead binding, competition bead pull-down, measured: LINJ.26.1960 | Leishmania donovani extract | 10 µM | baseline: vehicle | relative abundance | 0.94 |
| O=C1NC(=O)c2c1c1cc(F)c[n+]3c1c1c2c2cc(O)ccc2[n]1[Ru-4]312([N]=C=S)[S+]3CC[S+]1CC[S+]2CC3 (stereo not drawn) | EPHA4 (Homo sapiens, UniProt P54764) | enzyme activity |  | 100 nM, human enzyme, added: 10 µM ATP | baseline: untreated | remaining activity | 113% |
| CC(C)(C)C(=O)OCOP(=O)(OCOC(=O)C(C)(C)C)C1CCCN(O)C1=O (stereo not drawn) | HOP-92 |  |  |  |  | CC50 | > 100 µM |
| COc1ccccc1-c1n[nH]c2nc(NC3CCN(C(=O)Cc4ccc(F)cc4F)CC3)ncc12 |  | bead binding, competition bead pull-down, measured: LMJF.07.0340 | Leishmania donovani extract | 10 µM | baseline: vehicle | relative abundance | 0.96 |
| CS(C)(=O)=Nc1ccc(-c2ccc(-c3nc4cc(O[C@@H]5CO[C@H]6[C@@H]5OC[C@H]6O)[nH]c4cc3F)cc2)cc1 | INSRR (Homo sapiens, UniProt P14616) | enzyme activity, inhibitor |  | 10 µM |  | inhibition | -4% |
| NCCCO.O=C(O)C(Cl)Cl | Eclipta prostrata |  |  | 15 mg/mL, 21 days, pre-emergence, greenhouse |  | herbicidal inhibition | 0% |
| O=C1NC2(CC2)COc2ncc(F)cc2[C@H]2COCCN2c2ccn3ncc1c3n2 |  |  | Sprague-Dawley rat, female, ovaries | oral, 10 mg/kg/day, 4 weeks dosing, end of recovery |  | organ-to-brain weight ratio | 5.44 ± 1% |
| Cc1cc(Oc2nc(N3CC[C@@H](c4ccncc4)C3)ncc2F)[nH]n1 | Connective cancer cell lines | cell proliferation |  |  |  | IC50 | 52.5 µM |
| CC(C)[C@H]1NC(=O)C[C@H]2/C=C/CCSSC[C@@H](NC1=O)C(=O)N[C@H](Cc1cccc3ccccc13)C(=O)NCC(=O)O2 | FGFR4 (Homo sapiens, UniProt P22455, V550E) | enzyme activity, inhibitor |  | 10 µM |  | inhibition | -1.3% |
| Cc1cc(C(=O)Nc2nc3cccc(C)c3n2[C@H]2CCCCN(C(=O)/C=C/CN(C)C)C2)ccn1 | Trypanosoma brucei brucei |  | CLK1 C215S mutant expressing | 10 x EC50, 48 h |  | cell growth | 10900% and 9380% and 6810% |

For quick reference, copied from above:
| SMILES | tested on | test | test system | setting | scale | endpoint | result |
| --- | --- | --- | --- | --- | --- | --- | --- |
| CC(C)CC(C(=O)N1CC2(CC1C#N)C(=O)Nc1ccccc12)N(C)C(=O)c1cc2c(F)cc(F)c(F)c2[nH]1 (stereo not drawn) | Human coronavirus 229E | cytopathic effect | MRC5 | 210 pM |  | inhibition | 1% |
